Published values of several laboratories.
Lines come from different studies, so protocols differ. Numbers after ± are the reported error.

CC(C)(C)c1cc(-c2ccc3cc4ccccc4nc3n2)nc(-c2ccc3cc4ccccc4nc3n2)c1.Cc1ccncc1.[Cl-].[Cl-].[Ru+2].c1ccc2cc3nc4c5cccnc5c5ncccc5c4nc3cc2c1 — phototoxicity index (B16-F10; resazurin; added: light 633 nm, 100 J/cm2; relative to: dark EC50 over light EC50): 4
COC1CN([C@H]2CC[C@H]([C@@]3(C)Oc4c(Cl)cc(C(=O)NCc5c(SC)cc(C)[nH]c5=O)c(C)c4O3)CC2)C1 — log2 fold change (RNA-seq, refers to: IRF6; human, whole blood; dose not given, 24 h; relative to: pretreatment baseline): 1.11
CCN(CC)CC(=O)Nc1cccc(-n2cc(-c3ccc4ccc(-c5cn(-c6cccc(NC(=O)CN(CC)CC)c6)nn5)cc4c3)nn2)c1 — fold regulation (RCC4; PCR angiogenesis array, refers to: COL18A1; 5 x IC50, 6 h, normoxia; relative to: untreated): -1.66
CN1CCCNC(=O)c2cccc(c2)C(=O)NCCCN(C)CCCNc2cccc3c2C(=O)c2cccc(c2C3=O)NCCC1 — log2 fold change (SAS; RNA-Seq, refers to: FANCI mRNA; 1 µM, 6 h; relative to: untreated cells): -0.564
CNS(=O)(=O)Nc1nccc(Cc2c(C)c3ccc(Oc4ncccc4F)cc3oc2=O)c1F — IC50 (NCI-N87; cell viability; 7 days): 0.368 µM
CC(C)c1ccc(N(C)c2ccc3c(c2)OCC[C@H]3CNc2cnccc2C(=O)O)cc1 — IC50 (VCaP; cell growth or viability, ATP luminescence; 7 days): ≥ 10 µM
[Cl-].[Cl-].[Ru+2].c1cc(-c2ccc3cccnc3n2)nc(-c2ccc3cccnc3n2)c1.c1ccc2cc3nc4c5cccnc5c5ncccc5c4nc3cc2c1 — phototoxicity index (B16-F10; resazurin; added: light 733 nm, 100 J/cm2; relative to: dark EC50 over light EC50): 1
Cn1ncc2cc(-c3cncc(Cl)c3N3CCC4(CCNC4=O)CC3)ccc21 — log2 fold change (LS174T; gene expression, microarray, refers to: AKR1C2 mRNA; concentration not given, 24 h; relative to: untreated cells): 2.07
CC(C)(C)c1cc(-c2ccc3cccnc3n2)nc(-c2ccc3cccnc3n2)c1.COc1ccncc1.[Cl-].[Cl-].[Ru+2].c1ccc2cc3nc4c5cccnc5c5ncccc5c4nc3cc2c1 — EC50 (SK-MEL-28; cell viability; dark): 56.7 ± 1.5 µM
Cc1ncsc1-c1ccc(C(C)NC(=O)C2CC(O)CN2C(=O)C(NC(=O)CCCCCCCCCCN2CCCC(Nc3ncc(Cl)c(Nc4ccccc4S(=O)(=O)C(C)C)n3)C2)C(C)(C)C)cc1 (stereo not shown) — log2 fold change (22Rv1; RNA-seq, refers to: RAD54B mRNA; concentration not given; relative to: DMSO): -1.07
